Measurements pooled from the literature.
Lines come from different studies, so protocols differ. Several values in a cell are separate wells, animals, samples, runs or records. Converted amounts (≈) assume the structure as drawn.
Organism: Pseudomonas aeruginosa

Structure (SMILES) = CSCC[C@H](NC(=O)[C@H](CC(C)C)NC(=O)[C@@H](NC(=O)[C@H](Cc1ccccc1)NC(=O)[C@H](CCCCN)NC(=O)[C@H](CCCNC(=N)N)NC(=O)[C@@H](NC(=O)[C@H](Cc1ccc(O)cc1)NC(=O)[C@H](CCCNC(=N)N)NC(=O)[C@@H](N)CCCNC(=N)N)C(C)C)C(C)C)C(=O)N[C@@H](CCCNC(=N)N)C(=O)O; quantity = MBC; value = 64 µg/mL
Structure (SMILES) = Nc1nc2ccc(CN3CCNC3=O)cc2s1; assay = pyocyanin production; system = PA14-lux; setting = 200 µM, 18 h; scale = relative to: DMSO vehicle; quantity = inhibition; value = 14%
Structure (SMILES) = CC[C@H](C)[C@H](NC(=O)[C@H](Cc1ccccc1)NC(=O)[C@@H](NC(=O)[C@H](Cc1c[nH]c2ccccc12)NC(=O)[C@@H]1CCCN1C(=O)[C@@H](NC(=O)[C@H](C)N)[C@@H](C)CC)[C@@H](C)CC)C(=O)N[C@@H](Cc1ccccc1)C(=O)N[C@@H](CCCNC(=N)N)C(=O)N[C@@H](CC(C)C)C(=O)N[C@@H](CC(C)C)C(=O)N[C@@H](CCCNC(=N)N)C(=O)N[C@@H](CCCCN)C(=O)NCC(N)=O; system = PAO1; setting = 18 h, 37 °C; quantity = MBC; value = > 15 µM
Structure (SMILES) = CC[C@H](C)[C@H](NC(=O)[C@H](C)NC(=O)[C@H](CCCCN)NC(=O)[C@H](CC(C)C)NC(=O)[C@H](C)NC(=O)[C@@H](NC(=O)[C@H](Cc1c[nH]cn1)NC(=O)[C@H](CC(C)C)NC(=O)[C@@H](NC(=O)[C@@H](NC(=O)[C@H](CCCCN)NC(=O)[C@H](C)NC(=O)[C@H](C)NC(=O)[C@H](CO)NC(=O)[C@H](CCCCN)NC(=O)[C@H](Cc1ccccc1)NC(=O)[C@@H](NC(=O)[C@H](CCCCN)NC(=O)[C@H](CC(C)C)NC(=O)[C@H](Cc1ccccc1)NC(=O)[C@H](CO)NC(=O)[C@H](CCCCN)NC(=O)[C@H](Cc1c[nH]c2ccccc12)NC(=O)[C@H](CCCCN)NC(C)=O)[C@@H](C)O)[C@@H](C)O)C(C)C)[C@@H](C)O)C(=O)N[C@@H](CO)C(=O)N[C@@H](CO)C(N)=O; system = IPM-S; setting = 43 strains; quantity = MIC geometric mean; value = 7.03 µg/mL (≈ 2.4 µM)
Structure (SMILES) = O=[N+]([O-])c1cc2c(ccc3cc(Br)ccc32)o1; assay = REMA; quantity = MIC90; value = > 32 µg/mL
Structure (SMILES) = CC(N)C(O)CCCCCCCCCCCCCCC(=O)CCCCCCCC(O)C(C)N (stereo not shown); assay = resazurin; system = ATCC 27853; setting = 50 µM; quantity = growth inhibition; value = -4%
Structure (SMILES) = COc1cc(C#CC(=O)CC(C)C)ccc1O; setting = 10 µM, 24 h; scale = relative to: untreated; quantity = pyocyanin production; value = 88%
Structure (SMILES) = CC(C)CC1NC(=O)C(C(=O)NC(C(=O)NC2C(=O)N3C2SC(C)(C)C3C(=O)O)c2ccccc2)=C1O (stereo not shown); system = pvcA mutant; quantity = MIC; value = 25 µg/mL (≈ 47.1 µM)
Structure (SMILES) = CC(C)C[C@H](NC(=O)[C@H](CCN)NC(=O)[C@H](CCN)NC(=O)[C@@H](Cc1ccccc1)NC(=O)[C@H](CC(C)C)NC(=O)[C@H](CCN)NC(=O)[C@H](CCN)NC(=O)[C@@H](CCN)NC(=O)[C@@H](N)CSCCOC(=O)c1ccc(C(C)(C)C)cc1)C(N)=O; system = PAO1; setting = 24 h, 37 °C; quantity = MBC; value = 16 µM
Structure (SMILES) = Nc1cc(S(=O)(=O)c2ccc3nc(N)sc3c2)ccn1; assay = pyocyanin production; system = PA14-lux; setting = 200 µM, 18 h; scale = relative to: DMSO vehicle; quantity = inhibition; value = 10.6%
Structure (SMILES) = COc1ccccc1C(=O)C#Cc1ccc(F)c(F)c1; setting = 10 µM, 24 h; scale = relative to: untreated; quantity = pyocyanin production; value = 63%
Structure (SMILES) = COc1c([N+](=O)[O-])oc2ccc3ccccc3c12; assay = REMA; quantity = MIC90; value = > 32 µg/mL
Structure (SMILES) = CC[C@H](C)[C@H](NC(=O)[C@H](CC(N)=O)NC(=O)[C@H](Cc1ccccc1)NC(=O)[C@H](CCCNC(=N)N)NC(=O)[C@H](CCCNC(=N)N)NC(=O)[C@@H](N)CCCCN)C(=O)N[C@@H](CCCCN)C(=O)N[C@@H](CC(C)C)C(=O)N[C@@H](Cc1c[nH]c2ccccc12)C(=O)N[C@@H](CCCCN)C(=O)N[C@H](C(=O)N[C@@H](Cc1ccccc1)C(=O)O)[C@@H](C)O; quantity = MBC; value = 16 µg/mL
Structure (SMILES) = CNC(=O)COc1ccc2nc(N)sc2c1; assay = swarming area; system = PA14-lux; setting = 200 µM, 24 h; scale = relative to: DMSO; quantity = swarming inhibition; value = -25% and -25.3%
Structure (SMILES) = N=C(N)NCCC[C@H](NC(=O)[C@H](Cc1c[nH]c2ccccc12)NC(=O)[C@@H](N)CCCNC(=N)N)C(=O)N[C@@H](Cc1c[nH]c2ccccc12)C(=O)N[C@@H](Cc1ccccc1)C(=O)N[C@@H](CCC(N)=O)C(=O)N[C@@H](Cc1ccccc1)C(=O)N[C@@H](CCC(N)=O)C(=O)N[C@@H](Cc1ccccc1)C(=O)N[C@@H](CCCCN)C(N)=O; quantity = MBC; value = 570 µM
Structure (SMILES) = O=C(C#Cc1ccc(F)c(F)c1)c1ccccc1Cl; setting = 10 µM, 24 h; scale = relative to: untreated; quantity = pyocyanin production; value = 44%
Structure (SMILES) = CC1(C)SC2C(NC(=O)C(NC(=O)C3=C(O)C4CCCN4C3=O)c3ccccc3)C(=O)N2C1C(=O)O (stereo not shown); system = fptA mutant; quantity = MIC; value = 25 µg/mL (≈ 48.6 µM)
Structure (SMILES) = N=C(N)NCCC[C@H](NC(=O)[C@@H](N)CCCNC(=N)N)C(=O)N[C@@H](Cc1c[nH]c2ccccc12)C(=O)N[C@@H](Cc1c[nH]c2ccccc12)C(=O)N[C@@H](Cc1ccccc1)C(=O)N[C@@H](CCC(N)=O)C(=O)N[C@@H](Cc1ccccc1)C(=O)N[C@@H](CCC(N)=O)C(=O)N[C@@H](Cc1ccccc1)C(=O)N[C@@H](CCCCN)C(N)=O; quantity = MBC; value = 1130 µM
Structure (SMILES) = NC(=O)COc1ccc2nc(N)sc2c1; assay = swarming area, modified FAB agar; system = PA14-lux; setting = 200 µM, 24 h; scale = relative to: DMSO vehicle; quantity = inhibition; value = 4.2%
Structure (SMILES) = O=[N+]([O-])c1cc2c(ccc3c2ccc2cc([N+](=O)[O-])oc23)o1; assay = REMA; quantity = MIC90; value = > 32 µg/mL
Structure (SMILES) = Nc1nc2ccc([S+]([O-])c3ccncc3)cc2s1 (stereo not shown); assay = pyocyanin production; system = PA14-lux; setting = 200 µM, 18 h; scale = relative to: DMSO vehicle; quantity = inhibition; value = 18.1%
Structure (SMILES) = CCc1c([N+](=O)[O-])oc2ccc3ccccc3c12; assay = REMA; quantity = MIC90; value = > 32 µg/mL
Structure (SMILES) = CC1(C)SC2C(NC(=O)C(NC(=O)C3=C(O)C(Cc4ccccc4)NC3=O)c3ccccc3)C(=O)N2C1C(=O)O (stereo not shown); system = pvcA mutant; quantity = MIC; value = 12.5 µg/mL (≈ 22.1 µM)
Structure (SMILES) = COc1cccc(C(=O)C#Cc2ccc(F)c(F)c2)c1; setting = 10 µM, 24 h; scale = relative to: untreated; quantity = exoprotease production; value = 88%
Structure (SMILES) = CC[C@H](C)[C@H](NC(=O)[C@H](Cc1c[nH]c2ccccc12)NC(=O)[C@@H](NC(=O)[C@H](Cc1ccc(O)cc1)NC(=O)[C@@H]1CCCN1C(=O)[C@@H](NC(=O)[C@H](C)N)[C@@H](C)CC)[C@@H](C)CC)C(=O)N[C@@H](Cc1ccc(O)cc1)C(=O)N[C@@H](CCCNC(=N)N)C(=O)N[C@@H](CC(C)C)C(=O)N[C@@H](CC(C)C)C(=O)N[C@@H](CCCNC(=N)N)C(=O)N[C@@H](CCCCN)C(=O)NCC(N)=O; system = PAO1; setting = 18 h, 37 °C; quantity = MBC; value = > 15 µM
Structure (SMILES) = CC(C)(C)OCC1NC(=O)C(C(=O)NC(C(=O)NC2C(=O)N3C2SC(C)(C)C3C(=O)O)c2ccccc2)=C1O (stereo not shown); system = fptA mutant; quantity = MIC; value = 25 µg/mL (≈ 44.6 µM)
Structure (SMILES) = O=C(O)CN(CC(=O)O)CC(=O)O; system = IMP-37 and IMP-13 producer; setting = 32 µg/mL, together with: meropenem; quantity = meropenem MIC; value = 32 µg/mL
Structure (SMILES) = O=C(C#Cc1ccc(F)c(F)c1)c1cccc(Cl)c1; setting = 10 µM, 24 h; scale = relative to: untreated; quantity = rhamnolipid production; value = 31%
Structure (SMILES) = CC(C)C[C@H](NC(=O)[C@H](CCN)NC(=O)[C@H](CCN)NC(=O)[C@@H](Cc1ccccc1)NC(=O)[C@H](CC(C)C)NC(=O)[C@H](CCN)NC(=O)[C@H](CCN)NC(=O)[C@@H](CCN)NC(=O)[C@@H](N)CSCCOC(=O)C(C)(C)C)C(N)=O; system = PAO1; setting = 24 h, 37 °C; quantity = MBC; value = > 128 µM
Structure (SMILES) = COc1cc(C#CC(=O)c2ccccc2OC)ccc1O; setting = 10 µM, 24 h; scale = relative to: untreated; quantity = pyocyanin production; value = 47%
Structure (SMILES) = Nc1nc2ccc(Oc3cccnc3)cc2s1; assay = absorbance; system = PA14-lux; setting = 200 µM, 18 h; scale = relative to: DMSO; quantity = pyocyanin inhibition; value = 18.3%
Structure (SMILES) = COc1cccc(C(=O)C#Cc2ccc(O)c(OC)c2)c1; setting = 10 µM, 24 h; scale = relative to: untreated; quantity = rhamnolipid production; value = 30%
Structure (SMILES) = Nc1nc2ccc(Oc3ccc(=O)[nH]c3)cc2s1; assay = pyocyanin production; system = PA14-lux; setting = 200 µM, 18 h; scale = relative to: DMSO vehicle; quantity = inhibition; value = 7%
Structure (SMILES) = Nc1c([N+](=O)[O-])oc2ccc3ccccc3c12; assay = REMA; quantity = MIC90; value = > 32 µg/mL
Structure (SMILES) = O=C(O)c1cccc(C(=O)O)n1; system = IMP-37 and IMP-13 producer; setting = 32 µg/mL, together with: meropenem; quantity = meropenem MIC; value = 16 µg/mL
Structure (SMILES) = Nc1ccc(S(=O)(=O)c2ccc3nc(N)sc3c2)cn1; assay = pyocyanin production; system = PA14-lux; setting = 200 µM, 18 h; scale = relative to: DMSO vehicle; quantity = inhibition; value = 12.3%
Structure (SMILES) = COc1ccc2c(ccc3oc([N+](=O)[O-])c(C)c32)c1; assay = REMA; quantity = MIC90; value = > 32 µg/mL

A few entries again:
Structure (SMILES) = CC(C)(C)OCC1NC(=O)C(C(=O)NC(C(=O)NC2C(=O)N3C2SC(C)(C)C3C(=O)O)c2ccccc2)=C1O (stereo not shown); system = fptA mutant; quantity = MIC; value = 25 µg/mL (≈ 44.6 µM)
Structure (SMILES) = O=C(O)CN(CC(=O)O)CC(=O)O; system = IMP-37 and IMP-13 producer; setting = 32 µg/mL, together with: meropenem; quantity = meropenem MIC; value = 32 µg/mL
Structure (SMILES) = O=C(C#Cc1ccc(F)c(F)c1)c1cccc(Cl)c1; setting = 10 µM, 24 h; scale = relative to: untreated; quantity = rhamnolipid production; value = 31%
